Results from different studies.
A part holds a random share of what one study measured. “And” joins repeats or separate records; there may be more than shown.
Sequence of UniProt P35916 (whole entry, looked up): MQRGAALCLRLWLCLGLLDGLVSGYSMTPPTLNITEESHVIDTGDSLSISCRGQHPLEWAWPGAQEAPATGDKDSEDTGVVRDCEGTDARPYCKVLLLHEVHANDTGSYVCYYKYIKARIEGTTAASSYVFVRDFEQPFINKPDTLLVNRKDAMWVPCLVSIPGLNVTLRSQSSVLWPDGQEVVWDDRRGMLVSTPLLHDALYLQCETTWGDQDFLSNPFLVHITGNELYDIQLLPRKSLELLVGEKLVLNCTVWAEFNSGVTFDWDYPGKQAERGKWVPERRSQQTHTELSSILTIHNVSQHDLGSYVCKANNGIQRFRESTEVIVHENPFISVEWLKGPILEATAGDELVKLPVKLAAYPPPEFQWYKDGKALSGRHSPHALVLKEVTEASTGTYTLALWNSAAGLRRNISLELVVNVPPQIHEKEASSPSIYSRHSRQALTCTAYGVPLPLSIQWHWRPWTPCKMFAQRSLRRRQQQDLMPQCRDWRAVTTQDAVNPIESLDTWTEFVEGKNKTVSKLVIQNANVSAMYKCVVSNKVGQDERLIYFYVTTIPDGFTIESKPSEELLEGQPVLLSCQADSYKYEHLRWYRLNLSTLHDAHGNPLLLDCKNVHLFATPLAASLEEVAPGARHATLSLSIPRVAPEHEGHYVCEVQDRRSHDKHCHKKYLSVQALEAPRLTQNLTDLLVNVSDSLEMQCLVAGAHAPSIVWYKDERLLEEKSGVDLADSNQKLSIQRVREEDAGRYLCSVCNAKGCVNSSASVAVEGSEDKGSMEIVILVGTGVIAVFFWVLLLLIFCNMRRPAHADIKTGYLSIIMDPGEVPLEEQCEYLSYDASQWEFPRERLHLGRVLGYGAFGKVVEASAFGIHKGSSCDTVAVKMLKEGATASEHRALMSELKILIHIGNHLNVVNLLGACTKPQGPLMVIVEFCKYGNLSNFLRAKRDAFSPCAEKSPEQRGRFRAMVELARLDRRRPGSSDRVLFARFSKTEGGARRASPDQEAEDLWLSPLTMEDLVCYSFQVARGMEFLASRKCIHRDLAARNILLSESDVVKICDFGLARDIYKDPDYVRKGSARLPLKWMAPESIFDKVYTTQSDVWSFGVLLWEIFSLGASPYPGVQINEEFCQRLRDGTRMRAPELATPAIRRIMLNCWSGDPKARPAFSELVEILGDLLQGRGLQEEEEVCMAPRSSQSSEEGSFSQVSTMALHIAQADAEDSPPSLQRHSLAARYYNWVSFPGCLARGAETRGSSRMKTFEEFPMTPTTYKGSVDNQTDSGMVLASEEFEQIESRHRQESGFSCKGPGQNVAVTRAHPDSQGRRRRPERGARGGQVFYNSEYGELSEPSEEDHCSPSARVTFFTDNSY
Sequence of UniProt P53671 (whole entry, looked up): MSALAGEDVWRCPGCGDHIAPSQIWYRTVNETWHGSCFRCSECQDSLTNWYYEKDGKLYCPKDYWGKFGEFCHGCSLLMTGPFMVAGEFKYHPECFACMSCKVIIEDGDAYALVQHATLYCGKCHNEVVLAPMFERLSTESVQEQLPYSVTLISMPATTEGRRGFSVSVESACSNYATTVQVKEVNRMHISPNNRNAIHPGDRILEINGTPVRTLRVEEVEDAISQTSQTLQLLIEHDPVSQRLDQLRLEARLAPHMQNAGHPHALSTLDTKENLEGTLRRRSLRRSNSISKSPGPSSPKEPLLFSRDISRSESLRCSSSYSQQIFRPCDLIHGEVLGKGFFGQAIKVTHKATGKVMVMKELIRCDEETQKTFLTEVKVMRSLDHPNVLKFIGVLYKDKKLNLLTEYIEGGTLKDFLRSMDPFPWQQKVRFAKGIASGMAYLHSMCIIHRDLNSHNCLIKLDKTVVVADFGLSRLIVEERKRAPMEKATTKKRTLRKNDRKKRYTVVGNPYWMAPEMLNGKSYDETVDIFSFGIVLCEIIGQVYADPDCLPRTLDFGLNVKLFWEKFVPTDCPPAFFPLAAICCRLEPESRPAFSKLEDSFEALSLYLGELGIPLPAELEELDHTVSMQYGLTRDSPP
Sequence of UniProt Q15349 (whole entry, looked up): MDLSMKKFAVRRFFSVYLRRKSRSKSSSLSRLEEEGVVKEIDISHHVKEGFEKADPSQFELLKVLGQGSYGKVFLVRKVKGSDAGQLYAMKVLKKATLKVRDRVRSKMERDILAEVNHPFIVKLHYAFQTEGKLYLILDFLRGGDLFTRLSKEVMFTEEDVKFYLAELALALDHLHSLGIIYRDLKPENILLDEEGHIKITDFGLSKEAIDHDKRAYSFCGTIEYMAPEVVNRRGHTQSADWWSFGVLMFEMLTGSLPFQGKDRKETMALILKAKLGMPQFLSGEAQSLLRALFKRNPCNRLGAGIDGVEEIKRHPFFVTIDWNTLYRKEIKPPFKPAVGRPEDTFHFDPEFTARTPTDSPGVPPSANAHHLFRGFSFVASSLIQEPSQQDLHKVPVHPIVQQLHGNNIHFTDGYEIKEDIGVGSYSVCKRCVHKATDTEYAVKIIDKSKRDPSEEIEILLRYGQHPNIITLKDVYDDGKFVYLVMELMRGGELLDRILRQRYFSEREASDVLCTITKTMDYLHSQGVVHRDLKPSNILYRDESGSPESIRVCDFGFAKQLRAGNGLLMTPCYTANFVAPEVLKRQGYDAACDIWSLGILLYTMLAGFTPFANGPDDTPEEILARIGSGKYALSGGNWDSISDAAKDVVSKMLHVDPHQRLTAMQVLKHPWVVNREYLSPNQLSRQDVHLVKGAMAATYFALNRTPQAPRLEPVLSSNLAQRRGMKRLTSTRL
Sequence of UniProt P16591 (whole entry, looked up): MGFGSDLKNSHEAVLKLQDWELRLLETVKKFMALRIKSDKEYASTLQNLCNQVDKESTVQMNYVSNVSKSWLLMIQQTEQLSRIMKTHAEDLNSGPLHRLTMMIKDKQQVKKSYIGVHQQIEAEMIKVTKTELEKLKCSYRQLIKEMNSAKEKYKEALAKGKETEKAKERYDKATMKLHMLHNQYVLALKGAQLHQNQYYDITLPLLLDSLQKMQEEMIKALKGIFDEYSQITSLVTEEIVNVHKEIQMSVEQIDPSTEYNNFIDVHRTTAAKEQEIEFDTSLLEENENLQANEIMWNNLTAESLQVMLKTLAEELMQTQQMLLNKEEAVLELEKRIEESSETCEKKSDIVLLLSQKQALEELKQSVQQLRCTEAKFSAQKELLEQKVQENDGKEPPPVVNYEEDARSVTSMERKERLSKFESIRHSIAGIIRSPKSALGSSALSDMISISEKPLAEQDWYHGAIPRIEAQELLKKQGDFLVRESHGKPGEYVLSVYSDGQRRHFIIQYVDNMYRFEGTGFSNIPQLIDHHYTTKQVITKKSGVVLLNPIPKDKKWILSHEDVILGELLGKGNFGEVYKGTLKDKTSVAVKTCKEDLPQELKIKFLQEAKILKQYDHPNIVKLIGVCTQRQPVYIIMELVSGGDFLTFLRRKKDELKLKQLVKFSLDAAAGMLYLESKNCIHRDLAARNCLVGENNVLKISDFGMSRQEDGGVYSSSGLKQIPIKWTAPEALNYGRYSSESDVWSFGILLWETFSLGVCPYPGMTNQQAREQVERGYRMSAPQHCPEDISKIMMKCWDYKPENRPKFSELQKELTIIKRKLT
Sequence of UniProt P52564 (whole entry, looked up): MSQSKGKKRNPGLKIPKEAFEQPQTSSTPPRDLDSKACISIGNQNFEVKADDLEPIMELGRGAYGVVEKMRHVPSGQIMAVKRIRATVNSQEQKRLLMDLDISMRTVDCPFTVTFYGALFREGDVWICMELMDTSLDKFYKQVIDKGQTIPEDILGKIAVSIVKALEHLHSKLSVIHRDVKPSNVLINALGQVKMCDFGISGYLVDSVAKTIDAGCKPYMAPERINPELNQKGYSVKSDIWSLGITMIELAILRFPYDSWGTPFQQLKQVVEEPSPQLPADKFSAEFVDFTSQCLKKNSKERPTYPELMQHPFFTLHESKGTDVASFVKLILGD

Set 1 — effect on: enzyme activity; action: inhibitor; tested at: 0.5 µM; baseline: control
SMILES: Cn1cc(/C=C2\C(=O)Nc3ccc(S(N)(=O)=O)cc32)c2ccccc21
It gave 74.1% for remaining activity (LIM domain kinase 1 (LIMK1, Homo sapiens, UniProt P53667)).
Insulin receptor (INSR, Homo sapiens, UniProt P06213) — remaining activity: 87.4%.
The remaining activity was 90.3% (Cyclin-dependent kinase 3, with cyclin E (CDK3, Homo sapiens, UniProt Q00526)).
For MARK3 (Homo sapiens, UniProt P27448): remaining activity read 57.2%.
For MATK (Homo sapiens, UniProt P42679): remaining activity read 103%.
For TAOK3 (Homo sapiens, UniProt Q9H2K8): remaining activity read 60.2%.
For FER (Homo sapiens, UniProt P16591): remaining activity read 20%.
For PRKX (Homo sapiens, UniProt P51817): remaining activity read 81%.
For NLK (Homo sapiens, UniProt Q9UBE8): remaining activity read 90.4%.
For NEK11 (Homo sapiens, UniProt Q8NG66): remaining activity read 96.1%.
AKT1 (Homo sapiens, UniProt P31749) — remaining activity: 105%.
The remaining activity was 97.2% (HIPK1 (Homo sapiens, UniProt Q86Z02)).
For STK25 (Homo sapiens, UniProt O00506): remaining activity read 83.5%.
For PASK (Homo sapiens, UniProt Q96RG2): remaining activity read 84.8%.
For CDC42BPA (Homo sapiens, UniProt Q5VT25): remaining activity read 70.7%.
ALK (Homo sapiens, UniProt Q9UM73) — remaining activity: 72.1%.
The remaining activity was 45.7% (FYN (Homo sapiens, UniProt P06241)).
It gave 68.9% for remaining activity (PKN1 (Homo sapiens, UniProt Q16512)).
ITK (Homo sapiens, UniProt Q08881) — remaining activity: 21.4%.
For FLT4 (Homo sapiens, UniProt P35916): remaining activity read 65.1%.
It gave 28.4% for remaining activity (FGR (Homo sapiens, UniProt P09769)).
SRC (Homo sapiens, UniProt P12931) — remaining activity: 45.1%.

Set 2 — effect on: enzyme activity; action: inhibitor; tested at: 10 µM
Target: Calcium/calmodulin-dependent protein kinase type II subunit alpha (CAMK2A, Homo sapiens, UniProt Q9UQM7)
Sequence of UniProt Q9UQM7 (whole entry, looked up): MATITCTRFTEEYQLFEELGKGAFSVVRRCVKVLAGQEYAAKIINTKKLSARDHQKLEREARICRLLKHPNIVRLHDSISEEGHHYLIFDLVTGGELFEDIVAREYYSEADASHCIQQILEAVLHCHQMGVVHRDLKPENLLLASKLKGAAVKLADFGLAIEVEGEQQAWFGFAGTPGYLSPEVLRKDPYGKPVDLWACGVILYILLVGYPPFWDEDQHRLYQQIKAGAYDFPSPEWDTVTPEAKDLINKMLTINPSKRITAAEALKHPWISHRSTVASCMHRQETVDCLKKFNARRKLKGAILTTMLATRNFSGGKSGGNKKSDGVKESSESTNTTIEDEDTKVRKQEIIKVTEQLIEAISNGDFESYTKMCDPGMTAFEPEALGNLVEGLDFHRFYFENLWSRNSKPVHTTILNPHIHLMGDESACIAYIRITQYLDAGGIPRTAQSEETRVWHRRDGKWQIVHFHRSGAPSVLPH
`O=C(/C=C/c1ccc(O)c(O)c1)OCCc1ccccc1` gave an inhibition of -7%.
With `C[C@]12C[C@@H](O)[C@@H]3C[C@@]1(O[C@@H]1O[C@H](CO)[C@@H](O)[C@H](O)[C@H]1O)[C@]3(COC(=O)c1ccccc1)C(=O)O2` the inhibition was -2%.
For `CC(=O)O[C@H]1CC(=O)OC(C)(C)[C@@H]2CC(=O)[C@]3(C)[C@H](CC[C@@]4(C)[C@H](c5ccoc5)OC(=O)[C@H]5O[C@]543)[C@@]12C`, the inhibition was -20%.
For `COC(=O)[C@@]1(C)CC[C@]2(C(=O)O[C@@H]3O[C@H](CO)[C@@H](O)[C@H](O)[C@H]3O)CC[C@]3(C)C(=CC[C@@H]4[C@@]5(C)C[C@H](O)[C@H](O[C@@H]6OC[C@@H](O[C@@H]7O[C@H](CO)[C@@H](O)[C@H](O)[C@H]7O)[C@H](O)[C@H]6O)[C@@](C)(CO)[C@@H]5CC[C@]43C)[C@@H]2C1`, the inhibition was -54%.
With `COc1ccc(-c2cc(=O)c3c(O)cc(O[C@@H]4O[C@H](CO)[C@@H](O)[C@H](O)[C@H]4O[C@@H]4O[C@@H](C)[C@H](O)[C@@H](O)[C@H]4O)cc3o2)cc1O` the inhibition was -7%.
With `CC(C)(CCCCCC(O)CCCCCC(C)(C)C(=O)O)C(=O)O` the inhibition was 9%.

Set 3 — cell line: normal-adjacent epithelial organoid; effect on: cell viability; method: CellTiter-Glo; host: human; matrix: patient-derived organoid; tested at: 1 µM; baseline: DMSO
For `N#CC1(c2ccccn2)CCN(Cc2cc(C(=O)O)c(=O)n3ccccc23)CC1`, the viability was 109%.
The viability of `O=C1c2ccc(Nc3ccc(F)cc3F)cc2CCc2ccc(OC[C@H](O)CO)cc21` is reported as 118%.
`Cc1cn(-c2cc(NC(=O)c3ccc4c(c3)CN(c3cncnc3)C[C@@H]4C)cc(C(F)(F)F)c2)cn1` gave a viability of 54.9% and 71.6%.
The viability of `CCC(=O)N[C@H]1CC[C@@H](C(=O)N(C)c2ccc(-c3nc4ccccc4o3)cc2)C1` is reported as 73.3% and 62.3%.
With `Cn1cncc1[C@](O)(COc1ccc(C#N)cc1-c1ccc(OC(F)(F)F)cc1)c1ccc(C#N)cc1` the viability was 28.8% and 34%.
The viability of `Nc1nc(NCc2ccccc2)nc(-c2ccccc2CO)n1` is reported as 117%.
`O=C(NNS(=O)(=O)c1ccccc1)c1cc(-c2ccnnc2)ccc1F` has a viability of 134%.
`O=C(O)c1ccc(-c2c[nH]c3ncc(-c4ccccc4)cc23)cc1C1CCCC1` has a viability of 109%.
`Cn1nc(C(F)(F)F)cc1-c1cnc(N2CCc3cc(S(=O)(=O)Nc4c(F)cc(Cl)cc4F)cc(N4CCCC4=O)c32)nc1` has a viability of 105%.

Set 4 — action: inhibitor; tested at: 1 µM
SMILES: C=CC(=O)N1CCC[C@@H](n2nc(-c3ccc(Oc4ccccc4)cc3)c3c(N)ncnc32)C1
MAPK15 (Homo sapiens, UniProt Q8TD08); enzyme activity — inhibition: 5%.
The inhibition was 0% (MAP2K6 (Homo sapiens, UniProt P52564); enzyme activity).
The inhibition was 7% (LIM domain kinase 2 (LIMK2, Homo sapiens, UniProt P53671)).
For Ribosomal protein S6 kinase alpha-2, kinase domain 1 (RPS6KA2, Homo sapiens, UniProt Q15349): inhibition read 29%.
For Tyrosine-protein kinase ABL1, phosphorylated (ABL1, Homo sapiens, UniProt P00519, E255K): inhibition read 34%.
For PAK3 (Homo sapiens, UniProt O75914); enzyme activity: inhibition read 36%.
The inhibition was 15% (CASK (Homo sapiens, UniProt O14936); enzyme activity).
It gave 98% for inhibition (EGFR (Homo sapiens, UniProt P00533, A750P/del747-749)).
It gave 2% for inhibition (Tyrosine-protein kinase JAK1, JH1 kinase domain (JAK1, Homo sapiens, UniProt P23458)).

Excerpt of the above (set 4):
The inhibition was 0% (MAP2K6 (Homo sapiens, UniProt P52564); enzyme activity).
The inhibition was 7% (LIM domain kinase 2 (LIMK2, Homo sapiens, UniProt P53671)).
For Ribosomal protein S6 kinase alpha-2, kinase domain 1 (RPS6KA2, Homo sapiens, UniProt Q15349): inhibition read 29%.
For Tyrosine-protein kinase ABL1, phosphorylated (ABL1, Homo sapiens, UniProt P00519, E255K): inhibition read 34%.
